Results pooled from the literature.
Each line is one published result; not all experiments were run side by side.
PHO4 full length, GST-tagged: Phosphate system positive regulatory protein PHO4, full length, GST-tagged (PHO4, Saccharomyces cerevisiae, UniProt P07270, residues 1-312)
Sequence of UniProt Q13283 (whole entry, looked up): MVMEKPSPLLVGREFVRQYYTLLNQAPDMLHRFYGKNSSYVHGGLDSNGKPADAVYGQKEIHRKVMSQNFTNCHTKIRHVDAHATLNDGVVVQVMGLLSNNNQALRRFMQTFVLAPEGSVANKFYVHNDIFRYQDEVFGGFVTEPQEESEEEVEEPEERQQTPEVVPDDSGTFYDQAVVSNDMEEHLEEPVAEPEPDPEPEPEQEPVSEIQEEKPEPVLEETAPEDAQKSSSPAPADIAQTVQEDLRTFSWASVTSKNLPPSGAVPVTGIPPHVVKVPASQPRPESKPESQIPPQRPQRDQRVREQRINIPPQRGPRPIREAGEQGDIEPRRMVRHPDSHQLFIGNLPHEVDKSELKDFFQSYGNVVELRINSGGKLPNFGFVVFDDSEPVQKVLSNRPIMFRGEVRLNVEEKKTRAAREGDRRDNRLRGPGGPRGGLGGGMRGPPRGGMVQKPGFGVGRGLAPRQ
Sequence of UniProt P07270 (whole entry, looked up): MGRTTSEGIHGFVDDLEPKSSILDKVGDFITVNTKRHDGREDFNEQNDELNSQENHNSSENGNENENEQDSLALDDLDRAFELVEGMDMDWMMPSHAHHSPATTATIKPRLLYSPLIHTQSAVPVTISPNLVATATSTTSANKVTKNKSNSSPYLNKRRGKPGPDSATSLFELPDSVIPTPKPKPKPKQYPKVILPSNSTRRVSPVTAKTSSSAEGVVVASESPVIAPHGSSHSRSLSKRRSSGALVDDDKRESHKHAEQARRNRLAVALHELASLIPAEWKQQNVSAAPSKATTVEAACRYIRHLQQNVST

With `PhoQ, residues 284 288 289 292 302 303 NSMLDC` the fold induction was 7.41 (PhoP, residues 12 14 15 18 19 TTLRV (Escherichia coli, UniProt P23836); Sort-seq, item: YFP reporter; E. coli; PhoQ-PhoP variant library, added: 10 µM Mg2+; reference: high Mg2+ state, higher = stronger signaling).
For `GCCTAGCACTCATCTACAGGGTTTCACACTGTGCTAGTCTTGATTCGCTTGACGCTGCTG`, the log fluorescence was 0.526 z-score (Interferon regulatory factor 5, full length, phosphomimetic (IRF5, Homo sapiens, UniProt Q13568-2, residues 1-514, K96S/S451D/S453D/S456D/S462D); protein-binding microarray; double-stranded DNA, one strand shown, in vitro; 250 nM, 60-bp whole probe, added: salmon DNA 0.4 mg/ml; reference: random background probes, higher = stronger binding).
`GGACCCGGCCCCGCGCACGCGGACTCCGGGACTACAGTCTTGATTCGCTTGACGCTGCTG` has a fluorescence intensity of 11500 a.u. (PHO4 full length, GST-tagged; competition protein-binding microarray; double-stranded DNA, one strand shown, in vitro; 2 µM, whole 60-bp probe, lowest competitor level, added: Cbf1 competitor, 0.05 µM; higher = stronger binding).
Under “fitted relative affinity”, `GCCTAGCACCACGAACTGAGACTGGAGACGTGCTAGGTCTTGATTCGCTTGACGCTGCTG` is recorded as -0.019 z-score (Interferon regulatory factor 5, full length, phosphomimetic (IRF5, Homo sapiens, UniProt Q13568-2, residues 1-514, S451D/S453D/S456D/S462D); protein-binding microarray; double-stranded DNA, one strand shown, in vitro; 940 nM top, 60-bp whole probe, added: salmon DNA 0.4 mg/ml; reference: random background probes, higher = stronger binding).
`GGGAGUUCUACAGUCCGACGAUCGCAGGAAGUAAAAACAAAUGGAAAUGCUUCGGAUAGUGGCAGGGGUGGGGGUUGCUAAGGAAAGGGUGGGAUAAAAGUGGGUAAAGAGUUUGGAAUUCUCGGGUGUCAAGG` gave a log2 enrichment of 0.683 (Ras GTPase-activating protein-binding protein 1, full length (G3BP1, Homo sapiens, UniProt Q13283); RNA Bind-n-Seq; RNA, in vitro; 200 nM, whole 134-nt RNA, ends assumed, added: 150 mM KCl; reference: input library, higher = stronger binding).
`TGAACCAGTCAATATCACACTTCCAAATGGTTTGACGTCTTGATTCGCTTGACGCTGCTG` has a fluorescence intensity of 3810 a.u. (PHO4 full length, GST-tagged; competition protein-binding microarray; double-stranded DNA, one strand shown, in vitro; 2 µM, whole 60-bp probe, lowest competitor level, added: Cbf1 competitor, 0.05 µM; higher = stronger binding).
The log2 enrichment of `GGGAGUUCUACAGUCCGACGAUCUCAAGUCCUGUGCUACACAUCGUAUGUACCGAAUCGGUUUGGAAAGGUUUUUGGAAAGUAUUAUGUUACGCCGUUCGGAUCUGCACUUCCUGGAAUUCUCGGGUGUCAAGG` is reported as -1.1 (Ras GTPase-activating protein-binding protein 1, C-terminal RGG region (G3BP1, Homo sapiens, UniProt Q13283); RNA Bind-n-Seq; RNA, in vitro; 1 µM, whole 134-nt RNA, ends assumed, added: 150 mM KCl; reference: input library, higher = stronger binding).
For `GGGAGUUCUACAGUCCGACGAUCCUAUGAUGACUUCAGAAGAUACAAUGGUCCCAGGGGCCAAGUAGAAAGCAUUUUUAAAGAUUAAUCUGAAUUAAGCUUUAUCAGUGUACUCUUUAUCUGUGUUACUAGUGUGGAAUUCUCGGGUGCCAA`, “RBNS enrichment (R)” read 0.289 (RNA binding protein fox-1 homolog 2, RRM domain, GST-SBP tag (RBFOX2, Homo sapiens, UniProt O43251-10, residues 100-194); RNA Bind-n-Seq; RNA, in vitro; 365 nM, natural RNA segment, single round, ends assumed; reference: no-protein control, higher = stronger binding).

Excerpt of the above:
Under “fitted relative affinity”, `GCCTAGCACCACGAACTGAGACTGGAGACGTGCTAGGTCTTGATTCGCTTGACGCTGCTG` is recorded as -0.019 z-score (Interferon regulatory factor 5, full length, phosphomimetic (IRF5, Homo sapiens, UniProt Q13568-2, residues 1-514, S451D/S453D/S456D/S462D); protein-binding microarray; double-stranded DNA, one strand shown, in vitro; 940 nM top, 60-bp whole probe, added: salmon DNA 0.4 mg/ml; reference: random background probes, higher = stronger binding).
